# Experimental data pooled from the literature.
# Numbered parts are unrelated; each lists some results of a single study.

# Sample 1
# Target: RING finger protein unkempt homolog, zinc fingers 1-6, GST-SBP tag (UNK, Homo sapiens, UniProt Q9C0B0, residues 30-357)
# Sequence of UniProt Q9C0B0 (30-357, looked up): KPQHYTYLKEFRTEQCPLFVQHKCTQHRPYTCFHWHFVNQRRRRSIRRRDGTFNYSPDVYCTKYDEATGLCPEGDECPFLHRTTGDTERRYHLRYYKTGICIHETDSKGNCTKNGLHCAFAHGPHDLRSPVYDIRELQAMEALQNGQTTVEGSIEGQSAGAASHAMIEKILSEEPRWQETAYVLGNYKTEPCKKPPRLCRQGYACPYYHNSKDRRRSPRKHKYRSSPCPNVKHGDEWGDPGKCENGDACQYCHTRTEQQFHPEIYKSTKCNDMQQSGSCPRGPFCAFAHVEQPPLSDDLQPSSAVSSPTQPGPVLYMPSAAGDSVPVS
# Technique: RNA Bind-n-Seq
# Molecule type: RNA
# Matrix: in vitro
# Concentration: not given
# Setting: RNA with constant flanks, human and mouse sites, ends assumed
# Reference: input RNA pool
# Direction: higher = stronger binding
# Shared flanks, not repeated: GGGAGUUCUACAGUCCGACGAUC … CAACAGAGGAUUGAGCAUCA
Sequence,bound/input enrichment [ratio]
GUUUACGAGGUCACCUCUACCAAGUACACUCGUGAUAUCUAUAAAGAGCUCCUCAUCUCCUUAGUGGCCUCACUCUUCAUGGGCUUUGGAGUCCUCUUCCUGCUGCUCUGGGUUGGCAUC,0.237
GGAGGUUCAGAUUUCUUAAGGAAACGGUUGCAGAAAGGGCAAAAAUAUUUUGAUUCUGGGGAUUACAACAUGGCUAAAGCAAAAAUGAAGAACAAGCAACUUCCUACUGCAGCUCCGGAU,0.308
ACUGAGCCAUUUCCUAUUUUAAAUGGCUUCUAUAGAAAAUUAACAACUCAGUUAUUAAACUAGCAGGAUCCUACAAUGAUACAUCUAGUGAAAGUAGACUUAGUUAACUUAUUUAUUUCU,12.4
CAUGAAGAACGUAGCAAAAAGAGAAAAAAAAGCAAGAGCAGAAGUCGUAGUCAUGAGAGAAAAAGAAGCAAAAGUAAAGAACGGAAAAGAAGUAGAGAUAGAGAAAGGAAAAAGAGCAAA,1.95
AAGGGGGAUCAGGAGAACGUACACCCGGAUGUGAUGCUGGUACAACCCAGAGUAGAAUUUAUUCUGUCUUUCAUUGACCACAUUGCUGGAGAUGAGGAUCACACAGAUGGAGUAGUAGCU,0.46
UAGAGUGGGGCAUACAUAAUCUUGCUGCUAUGCUUCGAAGCUGUAGUCUGAAUCAACCUAAGUUUUAAACAGAAGGUGAACCUCUGAGAUAGAAAAUCAAGUAUAUUUUAAAAGAAGGGA,2.26
GUCCUUAUCUUGAAGACUGGAGAUGGCAGCAAUGUAACCAGCAACUUCACAAAAGACCCUUCUAUUCUAAUCCCUGAGUUAAUCCCUGGUGUCUCUUACACAGUGAAGAUCCUUACACAA,0.203
UCCCCUCAAGCACCAACACACUUUCUGGUGAUACCCAAGAAGCAUAUAUCCCAGAUUUCUGUAGCAGAUGAUGAUGAUGAAAGUCUUCUAGGACAUUUAAUGAUUGUUGGCAAGAAAUGU,0.286
AAACACUAAAUGAACAACGCCUGGAAGGAGAAUUUUGUGAUAUUGCUAUUGUGGUUGAGGAUGUGAAAUUCAGAGCACACAGAUGUGUUCUUGCUGCCUGCAGCACUUACUUUAAAAAGC,0.212
UUUUCCUUCUUCAUGUGACCUAUGAAAAUAAAUGAAUAAUAACUCAAAAAAAGUACUUUGUAGUUUUUGUCUUUCCUUAAGUAAAACUAAUCUUUUCUUUUAAAAAAUUCUUUUAAGGCC,0.481
UGUGGGAUAUCACAUCAGUGGUUCCAAGAUUUCAAAGUGGUGAAAUGAAAAUGGAGCAGCUAGUAUGUUUUAUUAUUUUAUGGGUCUUGAGUGCAUUUGAAGGUGUCCUUCAGUUCCCAC,0.38

# Sample 2
# Target: Histone acetyltransferase KAT6A, both winged helices, GST fusion (KAT6A, Homo sapiens, UniProt Q92794, residues 1-181)
# Technique: protein binding microarray
# Molecule type: double-stranded DNA, one strand shown
# Matrix: in vitro
# Concentration: not given
# Setting: 8-mer, flanks averaged, mean of 2 arrays, mostly near background
# Reference: not given
# Direction: higher = stronger binding
# Construct (chain): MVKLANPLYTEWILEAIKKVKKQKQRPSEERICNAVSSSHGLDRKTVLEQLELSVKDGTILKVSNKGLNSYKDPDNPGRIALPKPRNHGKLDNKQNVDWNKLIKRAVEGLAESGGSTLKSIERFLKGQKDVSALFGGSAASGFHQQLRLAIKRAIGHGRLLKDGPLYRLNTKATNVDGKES
Sequence,E-score
ACTATCAT,0.0704
ATAGCTAC,-0.231
AGGAGTAT,-0.296
CAAAGCTC,-0.121
ACCCATCG,-0.0948
AATTGCGA,0.0612
GCATACAC,-0.00966
CCCGGTCA,0.095
CTCCAGGC,-0.0242
AAAACTGT,-0.105
CGCATCTA,0.134
CCTGTTTC,-0.157
CTGTTCCA,-0.202
AAGTATGA,-0.0991
AAAACACC,0.0264
ATTCGATC,0.117
GTACCGAC,0.135
GCGCCACA,0.164

# Sample 3
# Target: Ras GTPase-activating protein-binding protein 1, full length (G3BP1, Homo sapiens, UniProt Q13283)
# Sequence of UniProt Q13283 (whole entry, looked up): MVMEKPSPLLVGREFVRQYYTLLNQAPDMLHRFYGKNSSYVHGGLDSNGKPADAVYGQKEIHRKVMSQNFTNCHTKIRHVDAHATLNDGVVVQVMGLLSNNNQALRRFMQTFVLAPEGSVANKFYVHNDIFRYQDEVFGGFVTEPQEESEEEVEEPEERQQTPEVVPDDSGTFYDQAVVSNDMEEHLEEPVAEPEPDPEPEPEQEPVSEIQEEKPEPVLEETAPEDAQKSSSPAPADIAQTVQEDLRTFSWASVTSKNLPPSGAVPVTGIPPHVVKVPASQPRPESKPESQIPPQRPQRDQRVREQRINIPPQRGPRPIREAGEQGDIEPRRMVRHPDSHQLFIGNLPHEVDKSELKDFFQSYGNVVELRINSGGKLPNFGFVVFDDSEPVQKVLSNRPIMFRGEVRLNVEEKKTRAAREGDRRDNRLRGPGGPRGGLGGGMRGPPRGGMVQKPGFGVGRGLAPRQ
# Technique: RNA Bind-n-Seq
# Molecule type: RNA
# Matrix: in vitro
# Concentration: 200 nM
# Setting: whole 134-nt RNA, ends assumed
# Together with: 150 mM LiCl
# Reference: input library
# Direction: higher = stronger binding
# Each molecule: 7-deaza-guanosine replaces G
# Shared flanks, not repeated: GGGAGUUCUACAGUCCGACGAUC … UGGAAUUCUCGGGUGUCAAGG
Sequence,log2 enrichment
CCUGUGCUACACAUCGUAUGUACCGAAUCGGGGUGGGGUUUUUUUGGGGAAAAAAAGGGGAAAGUAUUAUGUUACGCCGUUCGGAUCUGC,-0.332
ACCAUGAAGGUGGGCAUCUUUGGGAAGUGGGGCAAGGGGGGGAUAGGGAGGGGGGUAACACUUUGGGAACAGGUGGUCCCAGGUCGUUUC,0.286
UCAUUAGAAGAUCUAAUUGAGAGAGAGGUAACUGGUAUCCUUUUCCUACCAUAAAAACUGAAAGCAGUAUUUAUUGUGAAAUUCUAAUAC,0.488
AGUCCUGUGCUACACAUCGUAUGUACCGAAUCGGGAAAAAGGGUUUGGGAAAAAGGGAAAGUAUUAUGUUACGCCGUUCGGAUCUGCACU,-1.67
UUGAUUGAUAUUACAGGCAAGAACCAGGAUGAAUGUGUGAUUGCUUUGCAUGACUGCAAUGGAGAUGUCAACAGAGCUAUCAAUGUUCUU,-3.84
AGUCCUGUGCUACACAUCGUAUGUACCGAAUCGGUUUUUUUGGUUUGGUUUUUUUGGAAAGUAUUAUGUUACGCCGUUCGGAUCUGCACU,-2.27
AAGUCCUGUGCUACACAUCGUAUGUACCGAAUCGGGUUUUUGGGAAAAAGGGUGGGAAAGUAUUAUGUUACGCCGUUCGGAUCUGCACUU,-1.31
ACCAUGCAGGUGGGCAUCUUUGGGAAGUGGGGCAAGGGGGGGAUAGGGAGGGGGGUAACACUUUGGGAACAGGUGGUCCCAGGUUGUUUC,0.145
CACAGACAACACGCACCCAUACAGACACAGAGGGAAGGGGUUGGGAUGGGGACAGGGUGCACAGCAGGGCGGGGUAGGACCCCAGCCCCU,0.069
UGGGAGGUGGAUUUUGUUUAUUUUUUUAGCUCAUUUCCAGGGGUGGGAAUUUUUUUUUAAUAUGUGUCAUGAAUAAAGUUGUUUUUGAGA,0.395
UCUCUCUCUUUCCCUCUAGGGUCACAUCUCCCAGGAAGAUCUCACUUCCCCACAGAAGCUCUUGGCCUGGCCUCCUGCAGUGCCACGCUC,0.75

# Sample 4
# Target: RNA binding protein fox-1 homolog 2, RRM domain, GST-SBP tag (RBFOX2, Homo sapiens, UniProt O43251-10, residues 100-194)
# Technique: RNA Bind-n-Seq
# Molecule type: RNA
# Matrix: in vitro
# Concentration: 365 nM
# Setting: natural RNA segment, single round, ends assumed
# Reference: no-protein control
# Direction: higher = stronger binding
# Shared flanks, not repeated: GGGAGUUCUACAGUCCGACGAUC … UGGAAUUCUCGGGUGCCAA
# Construct (chain): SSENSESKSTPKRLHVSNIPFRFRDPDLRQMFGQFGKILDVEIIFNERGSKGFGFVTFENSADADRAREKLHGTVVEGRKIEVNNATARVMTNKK
Sequence,RBNS enrichment (R)
GACCAGGGUGGCCUGCAGUGGUGCCUGGGUAGGGCCGCUCCUCUGGGGCCCUGUGCCCAGGCCCUGGGCUGGUUGCAGCCCAGCAGUGCCUCCUGCCCCUCCUGGAGUUC,0.203
UUCCUGAUAUCUGAUGAGAGGUUCAUUCUUGUGUAUUCAGUUAAUGACACCAAAAGGCUCAGCCCACCCCAACCCUAUCUCAUGUUCAGUCUGUCUAAUACAUGCCAGAG,0.405
GUUCCUUUUUUGUAUAUUACAACAUUUAUGUGAGGUAAUUAUUGCUCAACAGACAAUUAGAAAAAAGUCCACACUUGAAGCCUAAAUUUGUGCUUUUUAAGAAUAUUUUU,0.626
AUCCGUGGCUGCUCAUUCUUGCCUACUUUACUCUCCCACUGAAGCAGGUUAGCGUUGAAGGUGGUAUGGAAAAGCCUGCAUGCCUGUUCAAUUCUUUUGUUUCUUCUCCU,1.77
CACGGAUUCAUAUGGUACCUUCCUUCUAAACUUGAGGAAGGCAUUUGUCUUCCGGCUGCUCAGGGCUCUCACGCCCAGACCCUGCUUUAGAGUCCUGGAGUGACCACAGC,0.238
UUCUUCAAUUUCUUUCAGGACACUUGGGUUGAAUUCAGUAAGUUUCCUCUGAAGCACCCUGAAGGGUGCCAUCCUUACAGAGCUAAGUGGAGACGUUUCCAGAUCAGCCC,0.215
UUGUGUUGAUGUCUUAGGUCAUUUUCUUUUUUUCUUUCUCUUUUUUUAUUACCAGAGGAGAUGUUUUAAUAUUCAUGAGAAGAGGAACAUUUUCUAGAUUUUUUUGUUGU,0.758
GGUGAGCCGAGCUGUGGUGGCGGCUGGUUUAAAAGGGAUCCAGUUUCCAGCUGCAGGUUUGUUAGAGUCUGUUCUACAUGGGCCUGCCCUCCUGUGAUGGGCAGAGGCUC,0.418
CAAUUGUGGCACUUGGGGCACCUUGCUCCUCCUUCUGCUGCUGCCCCCACCUCUGCUGCCUCCCUCUGCUGUCACCUUGCUCAGCCAUCCCGUCUUCUCCAACACCACCU,0.52
CCAAGACAUGGUGGAUAAAAAUGUGGCAAAGACGACAAGAAACUUCAGGUGGUAGCCCUGGUUGUGCUGGGCGGCUAGUGAUGAUGCUGUGCUCUGCCAUCCAUCCAGAC,0.49
UCUUCUGUAGCUUUGCCUCUAUCAGGGCUGGAGUGGUGCAGCCCCUGGCAUCUCAGACAUGGUUCCUGCCUCACUUGUGGGAGCUGGACCAGCCUGGGUUUCAUCUCCCA,0.501
UUGCUUUUCAAUUUUGGAAAGGGAUCUCUGUCCAGGUCAGCCCCUCUUGAAGGGCUACCUUUUGUUUUAAUUGGUGGUGUACUUUUUUGUAUGUGGAAUUUGUCCCAUGU,0.376

# Sample 5
# Target: Sal-like protein 4, full length isoform A (SALL4, Homo sapiens, UniProt Q9UJQ4, residues 1-1053)
# Sequence of UniProt Q9UJQ4 (whole entry, looked up): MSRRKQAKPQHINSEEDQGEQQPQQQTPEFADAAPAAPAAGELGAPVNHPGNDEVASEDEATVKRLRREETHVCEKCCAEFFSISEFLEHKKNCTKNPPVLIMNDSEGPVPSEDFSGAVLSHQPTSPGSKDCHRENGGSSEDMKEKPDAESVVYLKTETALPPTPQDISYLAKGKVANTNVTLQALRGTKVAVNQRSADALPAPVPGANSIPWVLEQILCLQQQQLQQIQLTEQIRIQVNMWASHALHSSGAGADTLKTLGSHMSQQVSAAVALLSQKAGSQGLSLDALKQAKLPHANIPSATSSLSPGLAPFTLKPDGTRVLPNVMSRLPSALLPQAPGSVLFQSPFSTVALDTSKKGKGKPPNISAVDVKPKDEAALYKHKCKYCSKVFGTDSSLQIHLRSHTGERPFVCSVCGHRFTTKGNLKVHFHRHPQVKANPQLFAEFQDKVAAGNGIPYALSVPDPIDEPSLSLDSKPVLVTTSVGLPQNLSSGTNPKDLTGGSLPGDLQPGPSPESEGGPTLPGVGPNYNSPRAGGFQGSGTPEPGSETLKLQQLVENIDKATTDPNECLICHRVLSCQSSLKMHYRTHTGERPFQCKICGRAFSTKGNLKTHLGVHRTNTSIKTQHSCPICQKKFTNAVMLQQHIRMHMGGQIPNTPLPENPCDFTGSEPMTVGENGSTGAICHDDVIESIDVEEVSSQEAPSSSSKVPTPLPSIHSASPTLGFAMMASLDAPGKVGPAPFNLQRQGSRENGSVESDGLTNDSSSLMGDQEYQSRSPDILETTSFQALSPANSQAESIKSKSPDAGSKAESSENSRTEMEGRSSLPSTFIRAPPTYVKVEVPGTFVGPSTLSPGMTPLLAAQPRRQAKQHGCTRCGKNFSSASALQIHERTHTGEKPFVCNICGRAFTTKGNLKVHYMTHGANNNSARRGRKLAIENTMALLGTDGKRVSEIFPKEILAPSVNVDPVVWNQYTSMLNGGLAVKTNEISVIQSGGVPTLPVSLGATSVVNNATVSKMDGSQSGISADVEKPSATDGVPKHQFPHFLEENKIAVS
# Technique: universal PBM
# Molecule type: double-stranded DNA, one strand shown
# Matrix: in vitro
# Concentration: 600 nM
# Setting: 8-mer, flanks averaged, mean of replicates
# Direction: higher = stronger binding
Sequence,E-score
CCTCCCCC,-0.253
CGGCACCC,-0.315
CGGCGATA,0.04
ATCGGAAG,0.159
ATTAGCTA,0.131
ATTCGTAG,0.0705
AGGAAACG,0.069
CTGAATGA,0.121
CGGAGCCG,-0.389
AACAGAGA,0.0983
AAGTAACC,0.0997
ATGAGAAA,0.265
AGGTAAGG,-0.0216
ATTCTATG,0.178
GGTGTCAC,-0.158
AATTAGGC,0.16
TTGATCAA,0.16
AAGGGTCA,-0.032
GAGCGTCA,-0.194
CCACACGG,-0.237
GGGTGAAC,-0.0806
CCGGGGAA,-0.304
GAGTTTGC,-0.134
GATAATTA,0.349
ACTTGTGG,-0.0158

# A few entries again (sample 5):
Sequence,E-score
ATTCTATG,0.178
GAGTTTGC,-0.134
ATCGGAAG,0.159
AATTAGGC,0.16
CCACACGG,-0.237
AGGTAAGG,-0.0216
ATTAGCTA,0.131
